# Experimental data gathered from unrelated publications.
# Protocols differ between the studies behind these lines. Several values in a cell are separate wells, animals, samples, runs or records.
# Target: Casein kinase I isoform gamma-3 (CSNK1G3, Homo sapiens, UniProt Q9Y6M4)
Compound,test,conditions,scale,quantity,value
C=CC(=O)N1CCCC(n2c(=O)c3ncccc3n(Cc3ccc(Oc4ccccc4)cc3)c2=O)C1 (stereo not drawn),"cell-free assay, competition with immobilised ligand",1 µM,,remaining binding,100%
COc1ccc(O)cc1-c1c[nH]c2ncc(-c3cncc(C(=O)N(C)C)c3)cc12,"binding, competition with immobilised ligand",0.2 µM,,inhibition,15.1%
CN1CC[C@@H](COc2cnc(C#N)cc2-c2ccn3nc(NC(=O)C4CC4)cc3c2)C1,"enzyme activity, inhibitor",1 µM,,inhibition,-5%
Nc1ncc2c(n1)-c1c([nH]c3ccc(C4=CCOCC4)cc13)CCC2,"binding, competition with immobilised ligand",1 µM,,remaining binding,93%
CNC(=O)C1CCN(c2cc(C)c(F)cc2NC(=O)c2ccc(-c3cc(O)ccc3C)c(C)c2)CC1,"binding, competition with immobilised ligand",1 µM,,remaining binding,74%
C=CC(=O)N1Cc2nc(-c3cc(-c4cc(Cl)cnc4Cl)c(F)cc3F)n(-c3ccncn3)c2C1,"cell-free assay, inhibitor",1 µM,,inhibition,3.8%
CCN1CCN(Cc2ccc(C(=O)Nc3ccc(C)c(NCc4cnc5[nH]ccc5c4OC)c3)cc2C(F)(F)F)CC1,"binding, competition with immobilised ligand",1 µM,,remaining binding,99%
Cc1ccc(-c2c(/C=C(\C#N)C(=O)NC(C)C)n(CCCO)c3ncnc(N)c23)cc1,"cell-free assay, competition with immobilised ligand",1 µM,,remaining binding,100%
Cc1cnc2nc1Nc1cccc(c1)COC/C=C/COCc1cc(ccc1OCCN1CCOCC1)N2,,concentration not given,,percent of control,97%
C=CC(=O)N1CCc2ccc(-n3c(=O)ccc4cnc5ccc(-c6cnn(C)c6)cc5c43)cc21,KINOMEscan,1 µM,reference: DMSO control,remaining binding,99%
Cc1cccc(O[C@H]2CCC[C@@H](C(C)CNCc3ccncc3)C2)c1 (relative stereo),"kinase activity, kinome panel screening",10 µM,,inhibition,-3%
C=CC(=O)Nc1cccc(-c2cnc3[nH]cc(C(=O)NC(C)(C)C)c3n2)c1,kinase activity,0.1 µM,,inhibition,4% and 6%
NC(=O)C[C@H]1CCc2sc3ncnc(O[C@H]4CC[C@H](N5CCOCC5)CC4)c3c21,"enzyme activity, inhibitor",10 µM,,inhibition,5%
O=C=[N][Ru-4]123([n]4c5ccc(O)cc5c5c6c(c7cc(F)c[n+]1c7c54)C(=O)NC6=O)[S+]1CC[S+]2CC[S+]3CC1 (stereo not drawn),enzyme activity,"100 nM, human enzyme, together with: 10 µM ATP",reference: untreated,remaining activity,28%
COCC12C(=O)NC3C4(C(OC)CC1O)C1CC5(O)C(OC)C(O)C(OC(C)=O)(C1C5OC(=O)c1ccccc1)C3(O)C(OC)C24 (stereo not drawn),"kinase activity, inhibitor, ProQinase kinase profiling",25 µM,reference: control,remaining activity,92% and 94%

# A few entries again:
Compound,test,conditions,scale,quantity,value
COCC12C(=O)NC3C4(C(OC)CC1O)C1CC5(O)C(OC)C(O)C(OC(C)=O)(C1C5OC(=O)c1ccccc1)C3(O)C(OC)C24 (stereo not drawn),"kinase activity, inhibitor, ProQinase kinase profiling",25 µM,reference: control,remaining activity,92% and 94%
C=CC(=O)Nc1cccc(-c2cnc3[nH]cc(C(=O)NC(C)(C)C)c3n2)c1,kinase activity,0.1 µM,,inhibition,4% and 6%
